Measurements pooled from the literature.
Each line is one published result; not all experiments were run side by side. ± gives the spread as reported.

CCn1cc(-c2cc(Cn3ccoc3=N)cc3c2CCN([C@@H](C)c2cc(OC)ccn2)C3=O)c(C(F)(F)F)n1  EC50 (HT; cell growth; 120 h): 0.00834 µM
COc1ccc(-n2nc(C(C)=O)s/c2=N\N=C(/C)c2ccc(NC(=O)c3ccc(Cl)cc3)cc2)cc1  toxicity (MCF7; 5 µM): 96.3%
CCn1cc(-c2cc(Cn3ccnc3)cc3c2CCN([C@H](c2cc(OC)ccn2)C2CC2)C3=O)c(C(F)(F)F)n1  EC50 (COLO 320; cell growth, inhibitor; 120 h): 1.5 µM
O=C(Nc1nnc2n3c(nc(-c4ccc(Cl)cc4)c1-2)SCC3=O)c1ccccc1  cell growth (M14; SRB; 10 µM, NCI60 single-dose screen; reference: untreated): 104%
CCCc1cc(=O)nc(SCC(=O)Nc2ccccc2)[nH]1  inhibition (cells, COS-1, expressing proMMP-9; cell migration, 2D collagen dot migration; 50 µM, 18 h): 12 ± 3%
Cc1cccc(-c2[nH]c(CNc3ccccc3F)nc2-c2ccc3ncnn3c2)n1  surface marker level (RPMI-8226; flow cytometry, measured: CD267; concentration not given; reference: comparator compound alone): 185%
Clc1ccc(C2(c3ccc(-c4cn[nH]c4)cc3)CCNCC2)cc1  Mcl-1 MFI (primary CLL cells; flow cytometry; human; 0.01 µM, 24 h; reference: DMSO, higher = more protein): 1210 a.u.
O=c1[nH]c(=O)c2cc(S(=O)(=O)Nc3ccc(N4CCCCCC4)cc3)ccc2[nH]1  fractional shortening (adult rat ventricular myocytes; 10 µM; reference: basal): 173%
Clc1nc(NCc2ccco2)c2[nH]cnc2n1  ΔPSI (FD iPSC-derived cardiomyocytes; alternative splicing, RNA-seq, measured: CMYA5 exon chr5:79747090-79747113; unit not given; reference: DMSO minus compound): 0.2
COc1cc(/C=C/C(=O)N2CCC=CC2=O)cc(OC)c1OC  mRNA level (MDA-MB-468; quantitative RT-PCR, measured: Skp1; 30 µM, 8 h; reference: untreated cells): 106 ± 7.2%
CCc1nc(Cl)c(-c2c(F)cccc2F)n1-c1ccc(Cl)cc1  fold increase (QBI293; ELISA, measured: acetylated alpha-tubulin; 1 µM; reference: untreated): 1.75
O=C(CC(=O)c1ccccc1)c1ccccc1  activity score (human iPSC-derived cardiomyocytes; MyBP-C/MYH ratio, plate-normalised SD score; concentration not given, primary screen; direction not given): 7.5
c1ccc2[nH]ccc2c1  mRNA level, LS mean (HCT-8; RNA-seq, measured: NTN5; concentration not given): 6.12 counts per million
O=C(Cn1c(=O)n(Cc2ccc(F)cc2)c(=O)c2sc3ccccc3c21)Nc1ccc(F)cc1F  efficacy (C127 LDR GFP reporter cells; silenced GFP reporter induction, activator, high-content imaging; retest, two-run mean): 63%
COc1cnc2cccc(N3CCc4c(cc(Cn5ccnc5C)cc4-c4cn(C)nc4C(F)(F)F)C3=O)c2c1  EC50 (KYM1; cell growth; 120 h): 4.22 µM
O=C(CCCSc1nc2ccccc2c(=O)[nH]1)Nc1nc2ccccc2[nH]1  inhibition (cells, COS-1, expressing proMMP-9; cell migration, 2D collagen dot migration; 50 µM, 18 h): 81 ± 3%
COc1c(C)cnc(Cn2cc(C#CCCOP(=O)(O)O)c3c(Cl)nc(N)nc32)c1C  HSP70 upregulation duration (PBMC and cell lines): > 48 h
COc1cccc(N2CCN(S(=O)(=O)c3ccc(-n4cnnn4)cc3)CC2)c1  maximum efficacy (C127 LDR GFP reporter cells; silenced GFP reporter induction, activator, high-content imaging; independent samples, two-run mean): 33%
C[C@]12CC[C@H]3C(=CCc4cc(O)ccc43)[C@@H]1CCC2=O  activity score (human iPSC-derived cardiomyocytes; MyBP-C/MYH ratio, plate-normalised SD score; concentration not given, primary screen; direction not given): -3.4
Cc1cc(Nc2ncc(Cl)c(Nc3ccccc3S(=O)(=O)C(C)C)n2)c(OC(C)C)cc1C1CCNCC1  log2 fold change (CLB-BAR; phosphoproteomics LC-MS/MS, measured: RLTPR phosphorylation; 200 nM, 60 min; reference: untreated): -1.83
Oc1[nH]c2ccccc2c1N=NC(=S)N1CCOCC1  efficacy (C127 LDR GFP reporter cells; silenced GFP reporter induction, activator, high-content imaging; retest, two-run mean): 93%
OCC(O)CN1CCN(c2ccccc2)CC1 (stereo not drawn)  activity score (human iPSC-derived cardiomyocytes; MyBP-C/MYH ratio, plate-normalised SD score; concentration not given, primary screen; direction not given): 4
Cc1ccc(/C=[N+](\[O-])c2ccc(N(C)C)cc2)c2nsnc12  efficacy (C127 LDR GFP reporter cells; silenced GFP reporter induction, activator, high-content imaging; retest, two-run mean): 41%
O=C(Nc1cc(OCCN2CCCC2)c2ccccc2n1)c1cc(OCCN2CCCC2)cc(C(=O)Nc2cc(OCCN3CCCC3)c3ccccc3n2)n1  selectivity ratio (U2OS; cell viability, CellTiter-Glo; 72 h; reference: IC50 U2OS over WI-38): 1
CC[C@H](C)N(CC(=O)N(CC(=O)N(CC(=O)N(CC(=O)N(CC(=O)N(CC(=O)N(CC(N)=O)[C@@H](C)c1ccccc1)[C@@H](C)c1ccccc1)[C@@H](C)CC)[C@@H](C)c1ccccc1)[C@@H](C)c1ccccc1)[C@@H](C)CC)C(=O)CNCCCCN  cytokine release (THP-1 macrophages; measured: IL-8; 50 µM, 72 h, together with: LPS 2 ng/mL; reference: LPS alone): decreased
O=C(Nc1cc(OCCN2CCCC2)c2ccccc2n1)c1cc(OCc2ccc(F)cc2)cc(C(=O)Nc2cc(OCCN3CCCC3)c3ccccc3n2)n1  selectivity ratio (U2OS; cell viability, CellTiter-Glo; 72 h; reference: IC50 U2OS over WI-38): 2
CCOc1ccc(NC(=O)c2nc(S(=O)(=O)Cc3ccccc3F)ncc2Cl)cc1  maximum efficacy (C127 LDR GFP reporter cells; silenced GFP reporter induction, activator, high-content imaging; independent samples, two-run mean): 14%
CC(=O)c1nn(-c2ccc(Cl)cc2)/c(=N/N=C(\C)c2ccc(NC(=O)c3ccc(C)cc3)cc2)s1  toxicity (MCF7; 0.078 µM): 13.3%
Cn1cc(-c2ccc(-c3cncc(Cl)c3N3CCC4(CCNC4=O)CC3)cc2)cn1  fold change in expression (COLO 205; microarray, measured: c-Jun; concentration not given, 4 h; reference: untreated cells): 2.85
C=CC1=C(C)c2cc3[n-]c(cc4nc(cc5[n-]c(cc1n2)c(C)c5C=C)C(C)=C4CCC(=O)O)c(CCC(=O)O)c3C.[Zn+2]  fold change (SH-SY5Y; RNA-seq, measured: ITGA2 mRNA; 5 µM, 5 h; reference: untreated cells): 2.14
CC/C(=N\NC(=O)NCc1cccc(O)c1)c1ccc(O)c(C)c1O  log ratio (SK-OV-3; gene expression, microarray, measured: ADAMTS1; 10 µM, 24 h; reference: DMSO): 4.42
CCCCc1nc(Cl)c(CO)n1Cc1ccc(-c2ccccc2-c2nn[nH]n2)cc1  log2 fold change (human PBMC; RNA-seq, measured: CD1D mRNA; 10 µg/mL, 24 h; reference: untreated control): -1.6
COc1cc2ncnc(Nc3ccc(Oc4ccccc4)c(C)c3C)c2cc1OC  viability (MeWo; cell growth, resazurin; 1 µM, 72 h, together with: 0 nM trametinib; reference: DMSO): 92.2%
CC(C)NCC(O)c1ccc(O)c(O)c1 (stereo not drawn)  sarcomere length (mouse ventricular cardiomyocytes; dose not given, 0.331 s): 1.8 µm
CC1=CC(=O)C(C(C)C)=CC1=O  activity score (human iPSC-derived cardiomyocytes; MyBP-C/MYH ratio, plate-normalised SD score; concentration not given, primary screen; direction not given): 5.5
Cc1cc(C)n(-c2nc(-c3ccc(Cl)cc3)c3c(NC(=O)c4ccccc4)nnc-3[nH]2)n1  mean growth percent (NCI60 cell panel; SRB; 10 µM): 92.1%
O=C(C[C@@H](C(F)F)n1ccc(F)n1)N1CCC(O)(Cn2cnc3c(cnn3-c3ccc(F)cc3)c2=O)CC1  G1 phase cells (CHP-212 parental; PI flow cytometry; 0.1 µM, 24 h): 66.5%
Cn1c(Nc2nc3ccc(C(F)(F)F)cc3s2)nc2cc(C(=O)NCCOCCO)ccc21  fold change (SH-SY5Y; RNA-seq, measured: RFTN1 mRNA; 5 µM, 5 h; reference: untreated cells): 1.59
CC1(C)CCC2=C(O1)c1ccccc1C(=O)C2=O  activity score (human iPSC-derived cardiomyocytes; MyBP-C/MYH ratio, plate-normalised SD score; concentration not given, primary screen; direction not given): 9.2
CC(C)S(=O)(=O)c1ccc2nccc(Nc3ccc4scnc4c3)c2c1  time to cleaved caspase-3 accumulation (3T3-SA; concentration not given): ≤ 1.5 h post treatment
CCc1cnc(N2CCC(c3nc(COc4ccc(-n5cnnn5)cc4)cs3)CC2)nc1  normalized enrichment score (HEK-293T; RNA-seq GSEA, measured: HALLMARK_TGF_BETA_SIGNALING; concentration not given; direction not given): 0.872
Cn1cc(Nc2nccc(-c3ccc4c(c3)CN(C3COC3)CC[C@H]4NC(=O)c3cn(C(C)(C)C)nn3)n2)cn1  pathway activation z-score (mouse splenic B cells; measured: RAN signalling; 30 mg/kg, IgD-activated in vivo; reference: vehicle, direction not given): -3
CC(=O)OC1CC2CCC1(C)C2(C)C (stereo not drawn)  activity score (human iPSC-derived cardiomyocytes; MyBP-C/MYH ratio, plate-normalised SD score; concentration not given, primary screen; direction not given): 5.7
C[C@]12CCCN1CC1=NNC(=O)c3cc(F)cc4[nH]c2c1c34  EC50 (MKN-45 gastric cancer cells; cell viability; concentration not given, together with: with temozolomide): > 10 µM
C#C[C@]1(O)CC[C@H]2[C@@H]3CCc4cc(OC5CCCC5)ccc4[C@H]3CC[C@@]21C  activity score (human iPSC-derived cardiomyocytes; MyBP-C/MYH ratio, plate-normalised SD score; concentration not given, primary screen; direction not given): 3.8
CSc1cc(Oc2ccnc3[nH]c(=O)cnc23)ccc1NC(=O)Nc1cc(C(C)(C)C)nn1-c1ccccc1  phospho/total p53 ratio (patient-derived cell clone A (sample B); reverse phase protein array, measured: p53 pSer15; human; 1 µM, 4 h; reference: DMSO): 0.9
C/C(=C(\CCOP(=O)(O)O)SC(=O)c1ccccc1)N(C=O)Cc1cnc(C)nc1N  activity score (human iPSC-derived cardiomyocytes; MyBP-C/MYH ratio, plate-normalised SD score; concentration not given, primary screen; direction not given): 3.1
O=C(/C=C/C=C/C=C/C1CCCCC1)NC1=C[C@@](O)(/C=C/C=C/C=C/C(=O)NC2=C(O)CCC2=O)[C@@H]2O[C@@H]2C1=O  GI50 (LS-411N; cell growth, CellTiter-Glo; 78 h): 7.07 µM
CCCN1CCN(c2ccc3nc(-c4ccc5nc(-c6cc(OC)ccc6OC)[nH]c5c4)[nH]c3c2)CC1  growth percent (M14; SRB; 10 µM, 48 h): 111%
O[C@H]1[C@H]2c3cc4c(cc3CN3CCC(=C[C@@H]1O)[C@H]23)OCO4  efficacy (C127 LDR GFP reporter cells; silenced GFP reporter induction, activator, high-content imaging; retest, two-run mean): 66%
C[C@H](NC(=O)C(=O)Nc1ccccc1C(C)(C)C)C(=O)N[C@@H](CC(=O)O)C(=O)COc1c(F)c(F)cc(F)c1F  cell lysis (THP-1 cells, LPS-primed; pyroptosis, LDH release; 25 µM, LPS 1 µg/mL, 4 h, together with: nigericin 5 µM, 2 h): 41.9%

A few entries again:
COc1cccc(N2CCN(S(=O)(=O)c3ccc(-n4cnnn4)cc3)CC2)c1  maximum efficacy (C127 LDR GFP reporter cells; silenced GFP reporter induction, activator, high-content imaging; independent samples, two-run mean): 33%
C[C@]12CC[C@H]3C(=CCc4cc(O)ccc43)[C@@H]1CCC2=O  activity score (human iPSC-derived cardiomyocytes; MyBP-C/MYH ratio, plate-normalised SD score; concentration not given, primary screen; direction not given): -3.4
Cc1cc(Nc2ncc(Cl)c(Nc3ccccc3S(=O)(=O)C(C)C)n2)c(OC(C)C)cc1C1CCNCC1  log2 fold change (CLB-BAR; phosphoproteomics LC-MS/MS, measured: RLTPR phosphorylation; 200 nM, 60 min; reference: untreated): -1.83
